# Measured values pooled from the literature.
# A part holds a random share of what one study measured. Substitutions count along the parent as printed.

# Series 1 — technique: RNA Bind-n-Seq; molecule type: RNA; matrix: in vitro; concentration: 200 nM; notes: whole 134-nt RNA, ends assumed; together with: 150 mM KCl; baseline: input library; reading: higher = stronger binding
# Target: Fragile X messenger ribonucleoprotein 1, C-terminal low-complexity region (Fmr1, Mus musculus, UniProt P35922)
# Shared flanks, not repeated: GGGAGUUCUACAGUCCGACGAUC … UGGAAUUCUCGGGUGUCAAGG
Oligonucleotide,log2 enrichment
CACAGACAACACGCACCCACACAGACACAGAGGGAAGGGGUUGGGAUGGGCACAGGGUGCACAGCAGGGCGGGGUAGGACCCCAGCCCCU,1.26
CUGUGCUACACAUCGUAUGUACCGAAUCGGGUUUUUUGGGGUUUUUUGGGGUUUUUUGGGGAAAGUAUUAUGUUACGCCGUUCGGAUCUG,-0.129
AUAGAUUGCGCAGUCUCUUUGUGGAGAGGACUUGAUCAUUAAAGGAAUCAGCGUUCAUAUAUCCAAUGCCGAACCUAAGCACAAUAGCAA,0.212
CCUCAAGUCCUGUGCUACACAUCGUAUGUACCGAAUCGGGAGGGAGGAGGGGAAAGUAUUAUGUUACGCCGUUCGGAUCUGCACUUCCAG,1.39
ACUGGACCAGAUUGUUGAAAAAGGAAGACCAGCUCCUGGCUUCCAUCAUGGCGAUGGACCGGGAAAUGCAGUUCAAGAAAUCAUGAUUCC,-0.886
GUCCUGUGCUACACAUCGUAUGUACCGAAUCGGGUUUUUGGGAAAAAGGGUUUUUGGGAAAGUAUUAUGUUACGCCGUUCGGAUCUGCAC,-0.282
CUGUGCUACACAUCGUAUGUACCGAAUCGGGGUUUUUUUGGGUUUUUUUGGGUUUUUUUGGAAAGUAUUAUGUUACGCCGUUCGGAUCUG,-0.637
CUCAAGUCCUGUGCUACACAUCGUAUGUACCGAAUCGGGCCGGGGCCGGGCCGGAAAGUAUUAUGUUACGCCGUUCGGAUCUGCACUUCC,0.0583
UUUGAUGACAGUCUGCAGGAGCUGCCUGGUGAAGUACCUGGAGGAGAACAACACCUGCCCCACCUGCAGGAUUGUGAUCCACCAGAGCCA,-1.28
CAAGUCCUGUGCUACACAUCGUAUGUACCGAAUCGGGAAAAAAAGGGUGGGUGGGAAAGUAUUAUGUUACGCCGUUCGGAUCUGCACUUC,1.1
ACCAUGCAGGUGGGCAUCUUUGGGAAGUAGGGCAAGGGGGGGAUAGGGAGGGGGGUAACACUUUGGGAACAGGUGGUCCCAGGUCGUUUC,0.688
UCCUUUGUGUUUACAAAAGCACUGACCCUUUACCUUUUCUUUAGCAAGAAGAAUGGAAUGAACAUAAUGCCAAAAUAAUUAAAUAUAUAA,1.14
CUCAAGUCCUGUGCUACACAUCGUAUGUACCGAAUCGGGAAAGGAAAGGAAAGGAAAGUAUUAUGUUACGCCGUUCGGAUCUGCACUUCC,-0.467
UAACUUUAGAGGAGGAUCUGAUGGAUAUGGCAGUGGACGUGGAUUUGGGGAUGGCUAUAAUGGGUAUGGAGGAGGACCUGGAGGUGGUAA,0.144

# Series 2 — target: CCNA2, cyclin fold, Cln2 fusion (human); technique: yeast growth competition, sequencing; matrix: yeast; notes: strong parent motif; baseline: not given; reading: higher = stronger binding
# Starting sequence: INSM1 docking peptide (human); PKAIRKLHFEDEV; partner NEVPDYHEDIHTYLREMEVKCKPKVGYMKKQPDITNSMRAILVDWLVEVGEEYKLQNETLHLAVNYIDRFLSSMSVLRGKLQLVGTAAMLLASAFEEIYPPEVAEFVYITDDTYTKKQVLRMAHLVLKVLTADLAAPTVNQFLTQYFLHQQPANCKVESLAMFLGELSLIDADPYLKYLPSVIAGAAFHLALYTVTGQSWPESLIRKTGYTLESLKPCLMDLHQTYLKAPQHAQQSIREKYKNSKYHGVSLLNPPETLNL
Substitution,normalised enrichment score
PKAIRKLYFEDEV [H8Y],5.46
PKAIRKLHFEDSV [E12S],5.23
PKAIRKLHNEDEV [F9N],-0.0481
PKAGRKLHFEDEV [I4G],4.76
PKAIRKLHFEQEV [D11Q],4.92
PKAIRKLHFEWEV [D11W],4.09
PKAIRKLHFEDTV [E12T],5.32
PKNIRKLHFEDEV [A3N],0.577
PKAILKLHFEDEV [R5L],0.847
PKAIRSLHFEDEV [K6S],4.02
PKAIRKLHAEDEV [F9A],-0.0261
PKAIRELHFEDEV [K6E],3.01
PKAIRKLHIEDEV [F9I],-0.0859

# Series 3 — technique: DHFR PCA, deep sequencing; matrix: yeast; together with: (+)-ABA 58 µM; baseline: wild-type fitted maximum; reading: higher = stronger binding
# Target: ABI1, truncated, D143A, DHFR fusion (Arabidopsis thaliana)
# Notes: methotrexate growth selection, single substitutions
# Starting sequence: PYL1, truncated, DHFR fusion (Arabidopsis thaliana); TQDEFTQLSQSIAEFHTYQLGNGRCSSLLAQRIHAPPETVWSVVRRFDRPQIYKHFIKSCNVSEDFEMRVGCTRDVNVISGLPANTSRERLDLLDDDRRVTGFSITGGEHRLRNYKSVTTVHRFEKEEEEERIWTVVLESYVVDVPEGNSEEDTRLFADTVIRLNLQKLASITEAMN; partner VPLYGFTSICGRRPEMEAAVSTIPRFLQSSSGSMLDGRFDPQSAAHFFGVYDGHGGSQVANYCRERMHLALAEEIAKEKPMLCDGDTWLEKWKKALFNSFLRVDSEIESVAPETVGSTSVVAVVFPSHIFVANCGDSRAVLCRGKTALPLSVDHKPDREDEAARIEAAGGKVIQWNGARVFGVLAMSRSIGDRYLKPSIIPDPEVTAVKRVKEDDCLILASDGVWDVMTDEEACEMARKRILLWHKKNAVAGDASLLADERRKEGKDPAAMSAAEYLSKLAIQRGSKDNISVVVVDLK
Substitution,relative binding score [%]
I12T,48.2
C72W,60
S11M,82.2
E152P,54.1
C72R,55.9
E89D,31.9
N85K,89.8
S59D,84
T17W,40
V43G,-15.3
V145P,36.7
V40S,6.11
E152K,78.7

# Series 4 — technique: RNAcompete; molecule type: RNA; matrix: in vitro; concentration: 20 nM; notes: 7-mer, probes averaged, single round; baseline: mean of 7-mers; reading: higher = stronger binding
# Target: PABPC1L2, full length, GST fusion (mouse, UniProt A0ABA7IW68)
# Residues (chain): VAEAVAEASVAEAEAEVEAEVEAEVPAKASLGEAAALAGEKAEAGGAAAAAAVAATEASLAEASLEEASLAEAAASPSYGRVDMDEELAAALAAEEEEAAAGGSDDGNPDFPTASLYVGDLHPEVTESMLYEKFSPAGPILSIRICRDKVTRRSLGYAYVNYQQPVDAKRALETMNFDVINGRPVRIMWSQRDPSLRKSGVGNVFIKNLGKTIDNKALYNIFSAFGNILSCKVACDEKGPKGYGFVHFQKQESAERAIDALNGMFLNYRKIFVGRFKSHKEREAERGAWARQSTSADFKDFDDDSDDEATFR
Oligonucleotide,7-mer Z-score
AUCUAUU,-0.211
ACCGCAA,-0.05
UGUCAAU,-0.289
UUUCAAC,-0.0772
UAAACAU,2.09
CAACUUA,-0.262
CGAGGUC,-0.0536
CACUGGC,-0.0301
AUGUACU,-0.0627
GACCUUA,-0.164
AUUGAUC,-0.142
AGAAAGG,0.57
CCUCGCA,-0.374

# Series 5 — technique: universal PBM; molecule type: double-stranded DNA, one strand shown; matrix: in vitro; concentration: 600 nM; reading: higher = stronger binding
# Target: Sal-like protein 4, full length isoform A (SALL4, Homo sapiens, UniProt Q9UJQ4, residues 1-1053)
# Sequence of UniProt Q9UJQ4 (whole entry, looked up): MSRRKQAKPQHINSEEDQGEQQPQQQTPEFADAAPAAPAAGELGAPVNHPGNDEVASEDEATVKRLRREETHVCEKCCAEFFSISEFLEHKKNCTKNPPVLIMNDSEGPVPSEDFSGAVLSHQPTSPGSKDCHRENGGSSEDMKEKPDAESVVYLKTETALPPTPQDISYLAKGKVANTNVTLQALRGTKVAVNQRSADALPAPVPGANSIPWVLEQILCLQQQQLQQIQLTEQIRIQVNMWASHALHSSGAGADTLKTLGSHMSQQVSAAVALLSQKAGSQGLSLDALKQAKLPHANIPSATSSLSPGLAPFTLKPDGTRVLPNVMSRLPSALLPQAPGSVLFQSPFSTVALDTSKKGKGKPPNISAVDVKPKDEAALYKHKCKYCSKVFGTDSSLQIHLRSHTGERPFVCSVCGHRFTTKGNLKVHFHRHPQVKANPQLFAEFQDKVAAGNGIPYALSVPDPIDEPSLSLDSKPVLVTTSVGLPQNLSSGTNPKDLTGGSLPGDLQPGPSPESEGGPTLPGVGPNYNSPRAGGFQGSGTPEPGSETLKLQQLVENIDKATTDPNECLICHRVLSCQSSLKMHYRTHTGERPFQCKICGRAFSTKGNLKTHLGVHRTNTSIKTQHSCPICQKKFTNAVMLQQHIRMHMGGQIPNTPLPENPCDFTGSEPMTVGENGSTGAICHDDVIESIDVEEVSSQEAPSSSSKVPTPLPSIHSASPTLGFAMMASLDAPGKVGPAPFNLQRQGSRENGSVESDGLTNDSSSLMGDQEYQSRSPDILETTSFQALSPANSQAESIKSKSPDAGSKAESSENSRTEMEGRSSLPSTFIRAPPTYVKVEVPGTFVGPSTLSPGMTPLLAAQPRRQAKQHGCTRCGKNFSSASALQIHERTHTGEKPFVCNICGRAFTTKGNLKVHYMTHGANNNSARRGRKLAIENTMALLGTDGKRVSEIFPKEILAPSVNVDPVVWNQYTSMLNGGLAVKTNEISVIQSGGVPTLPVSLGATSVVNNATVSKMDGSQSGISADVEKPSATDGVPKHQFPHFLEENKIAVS
# Notes: 8-mer, flanks averaged, mean of replicates
Oligonucleotide,E-score
AATTTCGG,0.101
TACGGCTA,-0.064
CTCGAAGA,-0.0522
ACACATCA,0.0181
TTCGCCAA,0.00224
ACCCTGAG,-0.258
CTCGGGCC,-0.277
AAGGGCTC,-0.262
AAGCCCCG,-0.277
AAGACGCA,-0.0404
GCCAAAAA,0.183
GAGTTTGA,0.0262
TAATCGTA,0.25
CTTAAGCC,-0.0691
AACCAGAC,-0.0561
CCGTTGAG,-0.161
GCCCAAAA,0.0481

# Series 6 — technique: RNA Bind-n-Seq; molecule type: RNA; matrix: in vitro; concentration: 365 nM; baseline: no-protein control; reading: higher = stronger binding
# Target: RNA binding protein fox-1 homolog 2, RRM domain, GST-SBP tag (RBFOX2, Homo sapiens, UniProt O43251-10, residues 100-194)
# Notes: natural RNA segment, single round, ends assumed
# Shared flanks, not repeated: GGGAGUUCUACAGUCCGACGAUC … UGGAAUUCUCGGGUGCCAA
# Construct (chain): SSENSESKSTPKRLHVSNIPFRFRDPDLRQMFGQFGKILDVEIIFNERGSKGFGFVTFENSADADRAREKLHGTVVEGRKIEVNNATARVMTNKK
Oligonucleotide,RBNS enrichment (R)
UGUAUGCAAUACUUUCCCCCUUUUUGCUUUGCUAACCAAAGAGCAUAUAUUUUACUGUCAGUUGUCUCAACUCUUGAAUCCAUGUGGCGUUUUCUCUGUCCUGCUGCUUC,1.62
AAAACAAUGGCAGAGGAGACAUCUCUGGUGUUCCCACCACCCUAGAUGAAAAUCCACAGCACAGACCUCUACCGUGUUUCUCUUCCAUCCCUAAACCACUUCCUUAAAAU,0.401
CCUGAUGGUAGGUCGUGGGGCCUGGUGAUUUCAAACAAAGCCAUCGCCUGCGUUCUUUCUCCUUCUGGUGCUACAGCUCUGAGGGCCUUCACCUUUCUGUCUGAAAUACA,0.294
CUUUAUUUUUGUAAGUAUCACCUGCCACCAUGUUUUGUAAUUUGAGGUCUUGAUUUCACCAUUGUCGGUGAAGAAAAUUUUCAAUAAAUAUGUAUUACCCGUCUGAAGCU,0.945
GCUUCCCGGUCCCUCCGCGUGUGCCGAUUCCAGAUGACCUUCCAGUGUCCCCAAGGUUCUUCCAUCUUCUAGACUGUAACCCUGCCUCCCUGCUUCCUGGUCCAGAGCCU,0.413
UCGGUCCCUGCAGCUAAUGCUCGAAGACCUUCUGGGCUCCUCGUGGCACUAGGCCCUUCACCUUGACUGUGUGCAUGCAUGACCUGCAAUAGAGCCCACCAACCACAUAG,2.4
GGGUGUGCAGCCCUUGACCCAAAGCUUAAGCCUUGUGCUCCCAGGGGAGCCAGGAAGUGACGUGUGUGUCAUGUUACGGACAUCUGACUUUUGUGUGUGUGUGUGUGGGC,0.944

# Series 7 — technique: protein binding microarray; molecule type: double-stranded DNA, one strand shown; matrix: in vitro; concentration: not given; baseline: not given; reading: higher = stronger binding
# Target: Histone acetyltransferase KAT6A, winged helix 2, GST fusion (KAT6A, Homo sapiens, UniProt Q92794, residues 85-181)
# Notes: 8-mer, flanks averaged, mean of 2 arrays, mostly near background
# Residues (chain): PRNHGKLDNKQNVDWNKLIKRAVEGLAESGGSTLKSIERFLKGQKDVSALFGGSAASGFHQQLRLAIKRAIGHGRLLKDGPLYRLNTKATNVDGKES
Oligonucleotide,E-score
CCGAGGTA,-0.0538
GGAGCCAA,-0.0201
GTTTGAGA,0.0503
CCCTTTCG,-0.0165
AGCAGGCG,0.203
ATTCTGAC,0.0353
ACCCGCGT,0.0394
AATTACAG,0.0165
AGACGACT,-0.00194
CCTTTGTA,-0.0604
GGGTGTGA,-0.0148
AGCGGCCA,-0.193
CCGCAAAC,0.193
CCAAGCCG,0.0337
GTCTATAA,-0.0311
ACTTAAGT,-0.0787
AGTGGAAC,0.069
AGTAGTCG,-0.0867

# For quick reference, copied from above (series 4):
Oligonucleotide,7-mer Z-score
ACCGCAA,-0.05
UGUCAAU,-0.289
UUUCAAC,-0.0772
UAAACAU,2.09
CAACUUA,-0.262
CGAGGUC,-0.0536
CACUGGC,-0.0301
AUGUACU,-0.0627
GACCUUA,-0.164
